Results collected from several papers.
A part holds a random share of what one study measured.

Sample 1
Target: Ras GTPase-activating protein-binding protein 1, full length (G3BP1, Homo sapiens, UniProt Q13283)
Sequence of UniProt Q13283 (whole entry, looked up): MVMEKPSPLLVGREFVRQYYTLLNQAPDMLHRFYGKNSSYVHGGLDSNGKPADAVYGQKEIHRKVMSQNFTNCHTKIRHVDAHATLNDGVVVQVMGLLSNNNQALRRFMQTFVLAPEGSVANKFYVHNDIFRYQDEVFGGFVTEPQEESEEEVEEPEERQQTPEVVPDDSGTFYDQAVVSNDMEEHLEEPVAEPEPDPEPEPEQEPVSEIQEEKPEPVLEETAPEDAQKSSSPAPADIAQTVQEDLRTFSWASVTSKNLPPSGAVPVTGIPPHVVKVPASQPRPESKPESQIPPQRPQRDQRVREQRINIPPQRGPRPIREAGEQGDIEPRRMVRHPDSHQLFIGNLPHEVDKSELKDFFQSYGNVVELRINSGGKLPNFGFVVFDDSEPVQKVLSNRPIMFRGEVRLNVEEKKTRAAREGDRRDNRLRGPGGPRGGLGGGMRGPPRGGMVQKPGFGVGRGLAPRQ
Method: RNA Bind-n-Seq
Form: RNA
Matrix: in vitro
Concentration: 200 nM
Notes: whole 134-nt RNA, ends assumed
Added: 150 mM LiCl
Reference: input library
Reading: higher = stronger binding
Each molecule: 7-deaza-guanosine replaces G
Shared flanks, not repeated: GGGAGUUCUACAGUCCGACGAUC … UGGAAUUCUCGGGUGUCAAGG
Oligonucleotide	log2 enrichment
CUGUGCUACACAUCGUAUGUACCGAAUCGGGCCCCCCCGGGCCCCCCCGGGGCCCCCCCGGGAAAGUAUUAUGUUACGCCGUUCGGAUCU	-0.548
UCCUCAAGUCCUGUGCUACACAUCGUAUGUACCGAAUCGGUUUGGAGGAGGAAAGUAUUAUGUUACGCCGUUCGGAUCUGCACUUCCAGC	-0.828
GCAGGAAGUAAAAACAAAUGUAAAUGCUUCGGAUAGUGGCAGGGGUGGGGGUUGCUAAGGAAAGGGUGGGAUGGGAGUGGGUAAAGAGUU	0.0503
UCAAGUCCUGUGCUACACAUCGUAUGUACCGAAUCGGAAAAAGGAGGUUUUUGGAAAGUAUUAUGUUACGCCGUUCGGAUCUGCACUUCC	-0.261
GUCCUGUGCUACACAUCGUAUGUACCGAAUCGGGGCCCCGGGGCCCCGGGCCCCGGGGAAAGUAUUAUGUUACGCCGUUCGGAUCUGCAC	-0.563
CAAGUCCUGUGCUACACAUCGUAUGUACCGAAUCGGGGCCCGGGCCCGGGCCCGGGAAAGUAUUAUGUUACGCCGUUCGGAUCUGCACUU	-0.525
UCAUGGCUAUCAUUAGCCACAGGUACUGCUGAUUAUAAGGCCAGUAAAAUUUUAGUACCUGGAGGUUUGACUCUAAUUUUUGCACUGAUG	-2.24
GUCCUGUGCUACACAUCGUAUGUACCGAAUCGGGGCCCCCCGGCCCCCCGGCCCCCCGGAAAGUAUUAUGUUACGCCGUUCGGAUCUGCA	-0.138
GCAGGAAAAAAAAACAAAUGGAAAUGCUUCGGAUAGUGGCAGGGGUGGGGGUUGCUAAGGAAAGGGUGGGAUGGGAGUGGGUAAAGAGUU	0.118
CUGUGCUACACAUCGUAUGUACCGAAUCGGCCCCCCCGGGGCCCCCCCGGGGCCCCCCCGGAAAGUAUUAUGUUACGCCGUUCGGAUCUG	-0.214
UAACUUUAGAGGAGGAUCUGAUGUAUAUGGCAGUGGACGUGGAUUUGGGGAUGGCUAUAAUGGGUAUGGAGGAGGACCUGGAGGUGGCAA	0.101

Sample 2
Target: Prothrombin, mature alpha-thrombin (F2, Homo sapiens, UniProt P00734)
Method: aptamer microarray, sandwich
Form: DNA with 2'F-ANA
Matrix: in vitro
Concentration: 200 nM
Notes: whole 15-mer aptamer, many near background
Added: Cy3 exosite-II aptamer, 400 nM
Reading: higher = stronger binding
Oligonucleotide: GGTTGGTGTGGTTGG
Modification	mean fluorescence intensity
2'F-ANA at 2 4 6 7 9 13 14	71.6 a.u.
2'F-ANA at 1 3 4 6 7 8 9 14	83.5 a.u.
2'F-ANA at 2 5 6 7 10 11 15	66.5 a.u.
2'F-ANA at 1 6 14 15	63.5 a.u.
2'F-ANA at 1 3 4 6 8 11 15	154 a.u.
2'F-ANA at 2 3 4 5 8 11 12 13 15	98.5 a.u.
2'F-ANA at 3 5 6 10 11 13 15	61 a.u.
2'F-ANA at 1 2 5 8 9 11 12 14	51.6 a.u.
2'F-ANA at 2 3 4 6 7 9 10 11 13	190 a.u.
2'F-ANA at 3 5 6 8 9 12 15	261 a.u.
2'F-ANA at 4 5 6 7 8 13 14	44.2 a.u.
2'F-ANA at 1 2 3 4 5 6 11 13 14 15	52.8 a.u.
2'F-ANA at 3 4 6 9 11 12 14 15	245 a.u.
2'F-ANA at 2 4 5 7 8 10 11 12 14 15	45.6 a.u.
2'F-ANA at 1 5 6 7 10 11 13	53.7 a.u.
2'F-ANA at 2 5 6 8 11 12	118 a.u.
2'F-ANA at 4 5 9 11 12	119 a.u.
2'F-ANA at 1 2 3 4 6 7 9 10 11 12 15	65.7 a.u.
2'F-ANA at 1 2 3 4 5 6 7 9 11 14	49.9 a.u.
2'F-ANA at 1 2 4 8 15	171 a.u.
2'F-ANA at 3 5 7 8 13	118 a.u.
2'F-ANA at 1 3 4 7 8 9 10 13 14 15	60.9 a.u.
2'F-ANA at 3 5 8 9 10 11 13	112 a.u.
2'F-ANA at 4 5 6 7 9 10 12 13 14 15	49.1 a.u.
2'F-ANA at 2 3 6 13	540 a.u.

Sample 3
Target: Interferon regulatory factor 5, full length, phosphomimetic (IRF5, Homo sapiens, UniProt Q13568-2, residues 1-514, S451D/S453D/S456D/S462D)
Method: protein-binding microarray
Form: double-stranded DNA, one strand shown
Matrix: in vitro
Concentration: 940 nM top
Notes: 60-bp whole probe
Added: salmon DNA 0.4 mg/ml
Reference: random background probes
Reading: higher = stronger binding
Shared flanks, not repeated: GCCTAGCAC … GTCTTGATTCGCTTGACGCTGCTG
Oligonucleotide	fitted relative affinity [z-score]
ATCTTTTTCCCTATTATATAGTGCTAG	2.32
TTAGAACTGCGGTTTCGATTAGTGCTA	5.36
TTGGGTATCGGGACTGGGTTAGTGCTA	3.3
GACGGTTTCGGTATAGGGACGTGCTAG	13.3
TCCATTTTCTGAATGCCTTGGTGCTAG	0.688
GATGGTATCGGTATCGGGACGTGCTAG	9.84
TCATTTTTTTTTTCCCTACTGTGCTAG	1.55
TCATAAATATCTTTGTTACTGTGCTAG	0.133
CTACACATCTCACTCTAATCGTGCTAG	1.42
GTCGATTTCAGTTTCGAGACGTGCTAG	7.39
ACCAGTTTTCTTTTCATTACGTGCTAG	2.2
TTATATTTCAGACTGGATTAGTGCTAG	0.309
TTTGACATCTTCATCAACTAGTGCTAG	-0.033
GACGGACAGGGTCTCGGGACGTGCTAG	-0.587
TTCACTTTCCAAAGCGTGAGGTGCTAG	-0.123
TCATCCCTTTCTCTCTGACTGTGCTAG	1.3
TTAGGTCTCCGTCTCGGTTAGTGCTAG	1.66
GACGATCACAGTTTCGAGACGTGCTAG	3.35
TTAGGTATCCTACTGCTGTAGTGCTAG	0.011
GACGATATCGGGTCTGGAGACGTGCTA	-0.287
TTAGGTTTCGGGCCTGGGTTAGTGCTA	7.45
TTAGGTTTCCTACTACTTTAGTGCTAG	1.03
GACGGACAGCTTTTCCTGACGTGCTAG	-0.528
TTTGGTATCGGGTTTCGGTTAGTGCTA	10.3
CTTTCTCTCTGTGACACAGAGTGCTAG	2.03

Sample 4
Target: Histone acetyltransferase KAT6A, both winged helices, GST fusion (KAT6A, Homo sapiens, UniProt Q92794, residues 1-181)
Method: protein binding microarray
Form: double-stranded DNA, one strand shown
Matrix: in vitro
Concentration: not given
Notes: 8-mer, flanks averaged, mean of 2 arrays, mostly near background
Reference: not given
Reading: higher = stronger binding
Target sequence (chain): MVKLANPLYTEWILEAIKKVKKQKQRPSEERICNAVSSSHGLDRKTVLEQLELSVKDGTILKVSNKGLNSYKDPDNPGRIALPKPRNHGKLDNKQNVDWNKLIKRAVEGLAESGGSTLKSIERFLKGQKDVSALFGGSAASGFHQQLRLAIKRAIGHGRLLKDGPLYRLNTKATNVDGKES
Oligonucleotide	E-score
ATGGCATA	-0.133
AACCATCG	-0.0271
AAGTGACG	0.0776
CTGTGCGC	0.289
GTACGTAA	-0.052
GCGCAAGA	0.253
CATTTAAC	-0.0567
AATAAAAT	-0.0518
GTCCCACA	-0.00861
ATCTACCC	0.015
CTAGAGAC	-0.0619
ACCTATTC	-0.063
CCTCATAG	-0.162
GCCTTCAA	-0.0376
TCGCTCCA	0.0576
ACGCCTCG	0.165
ACCACCCT	-0.209
CCATTATC	-0.0201
ATTATAGA	0.0272
CGCGGTTC	0.327
CAACAACC	-0.144

Repeated from above (sample 2):
Modification	mean fluorescence intensity
2'F-ANA at 1 6 14 15	63.5 a.u.
2'F-ANA at 1 3 4 6 8 11 15	154 a.u.
2'F-ANA at 3 5 7 8 13	118 a.u.
2'F-ANA at 3 5 8 9 10 11 13	112 a.u.
2'F-ANA at 2 4 5 7 8 10 11 12 14 15	45.6 a.u.
2'F-ANA at 2 3 6 13	540 a.u.
2'F-ANA at 3 5 6 10 11 13 15	61 a.u.
2'F-ANA at 1 2 4 8 15	171 a.u.
2'F-ANA at 1 2 3 4 6 7 9 10 11 12 15	65.7 a.u.
2'F-ANA at 1 3 4 6 7 8 9 14	83.5 a.u.
2'F-ANA at 3 4 6 9 11 12 14 15	245 a.u.
